# Results from different studies.
# Compare with care: the assays were run in different laboratories. Values joined by “and” are separate records of one study, mostly repeats; a detail may differ. ± gives the spread as reported.
# Cell line: HepG2
SMILES,test,setting,scale,quantity,value
COc1ccc2cc3[n+](cc2c1OCCCOC(=O)c1cscn1)CCc1cc2c(cc1-3)OCO2,"refers to: TC, TG, LDL-C","10-20 µM, 24 h, together with: oleic acid 1 mmol/L",baseline: oleic acid alone,lipid levels,decreased
NC(=O)c1cn([C@@H]2O[C@H](CO)[C@@H](O)[C@H]2O)c2ncnc(N)c2c1=O,cell growth or viability,,,IC50,1.5 µM
Cc1ccc2c(Cl)cc(Cl)c([O-])c2n1.Cc1ccc2c(Cl)cc(Cl)c([O-])c2n1.[Co+2].c1ccc(-c2ccccn2)nc1,"cell growth or viability, MTT",48 h,,IC50,8.36 µM
CC1(C)CC[C@@]2(CO)C(=C3C=C[C@@H]4[C@@]5(C)CC[C@H](O)[C@@](C)(CO)[C@@H]5CC[C@@]4(C)[C@]3(C)C[C@@H]2O)C1,flow cytometry,"concentration not given, high concentration, unit not given, together with: ethanol",baseline: control,ROS level,1.23 and 1.03 and 1.5
Cc1c(C)c2cccnc2c2ncccc12,"cell growth or viability, MTT",48 h,,IC50,> 50 µM
CCOC(=O)c1ccc(-n2c(N)c(C#N)c(SC)c(C#N)c2=O)cc1,"cell growth or viability, MTT","100 µM, 24 h",,viability,30.2%
Cc1ccnc(-c2cc(C)ccn2)c1.[Co+2].[O-]c1c(I)cc(I)c2cccnc12.[O-]c1c(I)cc(I)c2cccnc12,"cell growth or viability, MTT",48 h,,IC50,46.3 µM
NC1=C(Cl)C(=O)c2cccc([N+](=O)[O-])c2C1=O,MTT,,baseline: IC50 MRC-5 over IC50 HepG2,selectivity index,1.35
CC(C)(C)NC(=O)CC(NC(=O)CCc1ccccc1)C(=O)NCCNC(=O)c1ccc(-c2ccccc2)cc1 (stereo not drawn),cytotoxicity,,,EC50,> 100 µM
CCNC(=S)N/N=C(\C)c1c(O)c2ccccc2oc1=O,"cell growth, MTT",,baseline: IC50 BJ-1 over HepG2,selectivity index,> 2.16
NC(=O)c1ccc(-c2ccccc2Cl)c2c3c([nH]c12)CCC(N)C3 (stereo not drawn),cell growth or viability,,,IC50,0.02 µM
C/C(=N\NC(N)=S)c1c(O)c2ccccc2oc1=O,"cell growth, MTT",,baseline: IC50 BJ-1 over HepG2,selectivity index,> 1.63
Cc1ccc(C(C)C)cc1.Cc1ccc(C(C)C)cc1.Cc1ccc(C(C)C)cc1.Cc1ccc(C(C)C)cc1.O=S(=O)(O)C(F)(F)F.O=S(=O)(O)C(F)(F)F.O=S(=O)(O)C(F)(F)F.O=S(=O)(O)C(F)(F)F.c1ccc2c3c4ccccc4c(c2c1)-c1cn(nn1)-c1cc[n+](cc1)[Ru-]1[O]c2c4ccccc4c4c5c(c6ccccc6c(c25)=[O+]1)=[O+][Ru-]([O]4)[n+]1ccc(cc1)-n1cc(nn1)-c1c2ccccc2c(c2ccccc12)-c1cn(nn1)-c1cc[n+](cc1)[Ru-]1[O]c2c4ccccc4c4c5c(c6ccccc6c(c25)=[O+]1)=[O+][Ru-]([O]4)[n+]1ccc(cc1)-n1cc-3nn1,"cell growth, MTT","24 h, after 24 h preincubation in medium at 37 °C",,IC50,4.3 ± 0.57 µM
COc1cccc2c1cc1c3c(cc4c(c32)OCO4)[C@@H]2c3c4c5c(cc6c(c5c5cccc(OC)c35)OCO6)CCN4[C@@H]2N1C (racemic),"cytotoxicity, MTT","50 µg/mL, 48 h",,inhibition,< 50%
CCC(=[NH+][Pt-2]1([Cl])([O]C(=O)CC(C)C)([O]C(=O)CC(C)C)[NH2+]CCC[NH2+]1)N(C)CCNc1c2ccccc2[nH+]c2ccccc12.O=[N+]([O-])[O-].O=[N+]([O-])[O-],,"72 h, together with: pyrimethamine 1 µM",baseline: with over without pyrimethamine,IC50 fold shift,160 fold
CCOC(=O)c1ccc(NC(=O)C(C#N)=C2C(=O)c3ccccc3C2=O)cc1,"cell growth or viability, MTT","12.5 µM, 24 h",,viability,64.2%
COc1ccc(NC(=O)c2c(Nc3ccccc3)sc(C(=O)N/N=C/c3ccc(OC)c(OC)c3)c2NC(C)=O)cc1,"cell growth or viability, SRB","10 nM, 48 h",,viability,86.4%
O=C1C(Cl)=C(Cl)C(=O)c2c(O)ccc(O)c21,MTT,,baseline: IC50 MRC-5 over IC50 HepG2,selectivity index,1.29
CCN(C(=O)c1cc(F)ccc1Oc1nncnc1N1CCC2(C1)CN([C@H](CCCN(C)CCOC)C(C)C)C2)C(C)C,cell growth or viability,7 days,,GI50,> 10 µM
CC(C)(C)NC(=O)CC(NC(=O)CCc1ccccc1)C(=O)NCCNC(=O)c1cccc2ccccc12 (stereo not drawn),cytotoxicity,,,EC50,11.1 µM
C/C(=N\N=c1/[nH]c(-c2ccccc2)cs1)c1c(O)c2ccccc2oc1=O,"cell growth, MTT",,baseline: IC50 BJ-1 over HepG2,selectivity index,> 2.1

# Repeated from above:
SMILES,test,setting,scale,quantity,value
CCC(=[NH+][Pt-2]1([Cl])([O]C(=O)CC(C)C)([O]C(=O)CC(C)C)[NH2+]CCC[NH2+]1)N(C)CCNc1c2ccccc2[nH+]c2ccccc12.O=[N+]([O-])[O-].O=[N+]([O-])[O-],,"72 h, together with: pyrimethamine 1 µM",baseline: with over without pyrimethamine,IC50 fold shift,160 fold
